Measured values gathered from unrelated publications.
Every numbered part comes from another study and shows a few of its results, in no order.

Series 1 — technique: RNA Bind-n-Seq; form: RNA; matrix: in vitro; tested at: not given; reference: input RNA pool; reading: higher = stronger binding; measurement: bound/input enrichment
Target: RING finger protein unkempt homolog, zinc fingers 1-6, GST-SBP tag (UNK, Homo sapiens, UniProt Q9C0B0, residues 30-357)
UniProt Q9C0B0, sequence (30-357, looked up): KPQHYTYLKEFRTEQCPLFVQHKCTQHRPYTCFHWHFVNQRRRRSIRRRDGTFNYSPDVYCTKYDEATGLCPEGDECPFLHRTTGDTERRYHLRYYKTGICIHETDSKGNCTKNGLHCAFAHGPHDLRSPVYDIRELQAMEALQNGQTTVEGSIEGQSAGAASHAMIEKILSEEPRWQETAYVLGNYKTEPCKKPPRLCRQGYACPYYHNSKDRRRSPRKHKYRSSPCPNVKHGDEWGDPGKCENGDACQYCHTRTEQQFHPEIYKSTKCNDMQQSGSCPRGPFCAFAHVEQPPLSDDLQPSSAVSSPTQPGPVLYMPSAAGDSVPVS
Setting: RNA with constant flanks, human-mouse chimeric sites, ends assumed
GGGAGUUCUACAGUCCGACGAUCGAAACAUUUAAAUUUAAAGAAGCUGUUGUUCUAGGAAGCACGGACUUUCUAGAAGAUGAUAUAGAGAAAAUUGUAGAAGAACUGGGGAAAGAGUAUAAGGGCAACGCCUACCAUCUGAUGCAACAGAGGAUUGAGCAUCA: 1.4 ratio
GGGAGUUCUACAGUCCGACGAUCAUAGAUGAAAUUGAUGUGGACCAGGAAGGAAUUGCUGAAAUGAUCCUGGAUGAAAAUGCUAUAGCUCAGGUCCCACGCCCUGGCACAUCUUUGAAGCUCCCUGGAACUAACCAAACAGGACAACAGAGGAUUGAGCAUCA: 0.379 ratio
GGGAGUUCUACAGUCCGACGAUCCCCUCCCGGGCCACCCAACCCCUCCCGGCUCCCCGCCGAGAUCCAGGUUUCUUCUUAUUUCAUAGCAAGCCAGAACAAUGUUCUACGCACAUUUUGUCCUCAGUAAACGAGGGCCUCUGGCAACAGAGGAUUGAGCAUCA: 1.96 ratio
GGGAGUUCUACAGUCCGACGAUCCCAAUUGUGGAGCAGUACUUGAAGACAAAAAAGAACUCUAAUAAUUUAAUCAUCAAGUACAUUAGCUGCCGCCUGCUGACACUCAUCGUUAUACUGUUAGCGUGUAUCUACCUGGGCUAUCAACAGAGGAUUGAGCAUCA: 0.311 ratio
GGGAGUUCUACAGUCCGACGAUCUGUAACUUAUCUGUAAAAAAGGUUUCUCCCCUACUGUCAAAAAAUAUGCAUGUAUAGUAAUUAGGACUUCAUUCCUCCAUGUUUUCUUCCCUUAUCUUACUGUCAUUGUCCUAAAACCUUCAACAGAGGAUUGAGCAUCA: 1.13 ratio
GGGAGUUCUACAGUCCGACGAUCCUGGCCUGGCCCUCCCCAGGGGCCUCCUUUCGUAUAGUCACUGCUUCUGCAUCAGAUACUUUCAGCUCCAAGUCCUGACUGGGUGGGGCACCUAUCUCAGGCAGAAGGUUUUGGUACCCUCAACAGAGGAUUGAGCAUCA: 0.177 ratio
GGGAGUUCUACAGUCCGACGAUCCCACCAGGAUCCCAGAAACAUGACCCUUGCUGCCUACAAAGAGAAGAUGAAGGAGCUCCCGCUGGUGUCCUUGUUCUGCUCCUGCUUCCUGGCCGAUCCCCUGAAUAAGUCGUCCUACAACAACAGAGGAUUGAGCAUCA: 0.224 ratio
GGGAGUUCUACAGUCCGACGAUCGUGACUGGUGUUAAGAUUUACCCUCAGCAAAGAAGUGCAGUAGUCACCAUAAUUCCAUCUGUGGUGAGUGCCAGUCAGAUUGUGGAGCUGGUUCCAGACCUCAGUUUAGACAUGGGAACUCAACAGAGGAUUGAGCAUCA: 0.174 ratio

Series 2 — technique: RNA Bind-n-Seq; form: RNA; matrix: in vitro; tested at: 1 µM; setting: whole 134-nt RNA, ends assumed; together with: 150 mM KCl; reference: input library; reading: higher = stronger binding; measurement: log2 enrichment
Target: Ras GTPase-activating protein-binding protein 1, C-terminal RGG region (G3BP1, Homo sapiens, UniProt Q13283)
UniProt Q13283, sequence (whole entry, looked up): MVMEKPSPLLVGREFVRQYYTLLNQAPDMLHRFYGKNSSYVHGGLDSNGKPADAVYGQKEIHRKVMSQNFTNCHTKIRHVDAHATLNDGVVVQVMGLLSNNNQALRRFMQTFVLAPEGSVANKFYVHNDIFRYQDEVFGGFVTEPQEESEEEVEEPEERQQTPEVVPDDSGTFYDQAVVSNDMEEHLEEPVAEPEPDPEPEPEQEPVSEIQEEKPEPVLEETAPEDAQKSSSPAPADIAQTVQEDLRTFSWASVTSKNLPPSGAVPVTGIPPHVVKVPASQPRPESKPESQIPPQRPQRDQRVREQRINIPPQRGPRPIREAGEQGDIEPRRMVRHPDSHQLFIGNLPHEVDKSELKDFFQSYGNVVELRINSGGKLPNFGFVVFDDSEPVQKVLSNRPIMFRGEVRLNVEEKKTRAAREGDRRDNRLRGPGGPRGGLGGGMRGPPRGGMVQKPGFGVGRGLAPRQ
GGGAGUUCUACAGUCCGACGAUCCAGAGACAACACGCACCCACACAGACACAGAGGGAAGGGGUUGGGAUGGGGACAGGGUGCACAGCAGGGCGGGGUAGGACCCCAGCCCCUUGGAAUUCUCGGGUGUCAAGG: -0.321
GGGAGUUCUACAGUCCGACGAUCUCAAGUCCUGUGCUACACAUCGUAUGUACCGAAUCGGGUUUGGGUGGGAAAGGGAAAGUAUUAUGUUACGCCGUUCGGAUCUGCACUUCCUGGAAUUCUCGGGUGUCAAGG: 1.86
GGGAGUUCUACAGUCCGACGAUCUGAAAAGAACUGCUCUCCAUGGAGAGAGUAACUCUGUCCUUAUUAUCGGACCCCGAGGAUCAGGAAAAACUAUGGUAAAAGCUGUUGAUUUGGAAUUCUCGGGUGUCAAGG: -1.78
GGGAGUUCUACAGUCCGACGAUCAGUCCUGUGCUACACAUCGUAUGUACCGAAUCGGGGAAAAGGGAAAAGGGGAAAAGGAAAGUAUUAUGUUACGCCGUUCGGAUCUGCACUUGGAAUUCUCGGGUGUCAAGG: -0.908
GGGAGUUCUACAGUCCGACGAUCCCUGUGCUACACAUCGUAUGUACCGAAUCGGGUUUUUUGGGUUUUUUGGGUUUUUUGGGGAAAGUAUUAUGUUACGCCGUUCGGAUCUGCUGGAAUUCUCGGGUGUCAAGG: -1.45
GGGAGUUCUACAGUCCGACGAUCCUGUGCUACACAUCGUAUGUACCGAAUCGGUUUUUUUGGGGUUUUUUUGGUUUUUUUGGGGAAAGUAUUAUGUUACGCCGUUCGGAUCUGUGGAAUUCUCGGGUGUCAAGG: -1.5
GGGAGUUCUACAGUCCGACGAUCGCAGGAAGUAAAAACAAAUGGAAAUGCUUCGGAUAGUGGCAGGGGUGGGGGUUGCUAAGGAAAGGGUGGGAUGUGAGUGGGUAAAGAGUUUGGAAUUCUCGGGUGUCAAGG: 2
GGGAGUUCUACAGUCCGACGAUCCCUGUGCUACACAUCGUAUGUACCGAAUCGGGGAAAAAAAGGGGAAAAAGGGGAAAGGGGAAAGUAUUAUGUUACGCCGUUCGGAUCUGCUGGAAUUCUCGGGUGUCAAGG: 1.32
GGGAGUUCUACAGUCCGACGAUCACCAUGCAGGUGGGCAUCUUUGGGAAGUGGGGCAAGGGGGGGAUAGGCAGGGGGGUAACACUUUGGGAACAGGUGGUCCCAGGUCGUUUCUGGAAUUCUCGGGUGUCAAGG: 2.27

Series 3 — technique: protein-binding microarray; form: double-stranded DNA, one strand shown; matrix: in vitro; tested at: 2540 nM top; setting: 60-bp whole probe; together with: salmon DNA 0.4 mg/ml; reference: random background probes; reading: higher = stronger binding; measurement: fitted relative affinity; shared flanks, not repeated: GCCTAGCAC … GTCTTGATTCGCTTGACGCTGCTG
Target: Interferon regulatory factor 3, full length, phosphomimetic (IRF3, Homo sapiens, UniProt Q14653, residues 1-427, S386D/S396D/S398D/S402D/T404D/S405D)
UniProt Q14653, sequence (whole entry, unmodified, looked up): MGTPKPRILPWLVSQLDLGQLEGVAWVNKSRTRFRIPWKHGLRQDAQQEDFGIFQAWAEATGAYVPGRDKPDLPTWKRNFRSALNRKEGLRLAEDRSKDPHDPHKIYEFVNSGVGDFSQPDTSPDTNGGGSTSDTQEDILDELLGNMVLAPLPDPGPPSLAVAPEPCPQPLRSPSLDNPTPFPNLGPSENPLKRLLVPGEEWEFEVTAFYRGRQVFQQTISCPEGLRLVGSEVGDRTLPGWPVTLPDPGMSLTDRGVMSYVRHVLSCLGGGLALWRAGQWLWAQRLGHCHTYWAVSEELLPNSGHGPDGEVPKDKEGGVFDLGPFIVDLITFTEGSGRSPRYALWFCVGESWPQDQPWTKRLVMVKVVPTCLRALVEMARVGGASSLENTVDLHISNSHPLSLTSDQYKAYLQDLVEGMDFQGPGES
GACGGTTTCGGGACTGGGGAGGTGCTA: 4.9 z-score
CTCTCATTCCAATTCTTTTTGTGCTAG: 1.73 z-score
TCATCTAACCTCTCTAATACTGTGCTA: 0.6 z-score
TTAGATAACGGGTTTCGATTAGTGCTA: 1.7 z-score
TTAGGTATCCATTTCCTTTAGTGCTAG: 5.77 z-score
TTAGATATCGACTTTCGGTTAGTGCTA: 1.48 z-score
TTAGAAATCGGGACTGGATTAGTGCTA: -0.316 z-score
TCAGATAACTTTTTTTTACTGTGCTAG: 0.369 z-score
GCCGGTCTCGGACTGGGGACGTGCTAG: 0.856 z-score
TTAGAACTGGGGTATCGATTCGTGCTA: 0.0483 z-score
TTAGATTTCGGGACTTGATTAGTGCTA: 1.09 z-score
TCACTTTACACACATCATCTTGTGCTA: 1.47 z-score
GACGGACGGGGGTATCGGGACGTGCTA: -0.0685 z-score
GACGGTTCCATTTTCCTGACGTGCTAG: 5.33 z-score
TCATATTTAAGGCTAGGACTGTGCTAG: 0.411 z-score
GACGGACGGGGGACTGGGGACGTGCTA: -0.287 z-score

Series 4 — technique: RNA Bind-n-Seq; form: RNA; matrix: in vitro; tested at: 365 nM; reference: no-protein control; reading: higher = stronger binding; measurement: RBNS enrichment (R)
Target: RNA binding protein fox-1 homolog 2, RRM domain, GST-SBP tag (RBFOX2, Homo sapiens, UniProt O43251-10, residues 100-194)
Setting: natural RNA segment, single round, ends assumed
Target sequence (chain): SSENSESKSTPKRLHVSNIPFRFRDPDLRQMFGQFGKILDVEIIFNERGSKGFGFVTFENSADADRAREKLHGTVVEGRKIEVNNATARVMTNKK
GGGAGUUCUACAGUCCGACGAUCAUGAAAACAGGAAAAAAAUAAAACAAAUUUAGAAAACACAGCUCAUUAAAAUAAAAUUGUUGGAUUUAUUUCCCCAGGUCUUCAGUGUUGAUGUAAAUGUGUUUCUGUAGUGGAAUUCUCGGGUGCCAA: 1.85
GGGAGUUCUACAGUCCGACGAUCAGAAGAUGCUUGUUUUUAUUAAACAUUUGGAGAUUUAGAUAAUUUACAUUUUAACUGAAUGUCUAAAGUGAUUAUCUUCCCCUCCCUCCCCCAAGUUAAUCUUCCAUCUUUGGAAUUCUCGGGUGCCAA: 0.584
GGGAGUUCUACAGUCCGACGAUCCUGCGGCCGGCGAACCCCACGGAGGAGGGCCUGGCCAGCCUGCACAGCGUGCUGUUCCGCAAGCAGCCGUUCCUGUGGCGCGCUGCACUGCUCUACUACACCAUCCACCGUGGAAUUCUCGGGUGCCAA: 0.623
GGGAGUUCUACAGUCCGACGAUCAGCUGUGCAGGCAUGGUCCCUUAAGGCACAGUGGGAGCUGAGCUGGAAGGGGCCACGUGGAUGGGCAAAGCUUGUCAAAGAUGCCCCCUCCAGGAGAGAGCCAGGAUGCCUGGAAUUCUCGGGUGCCAA: 0.475
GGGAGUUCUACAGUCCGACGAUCCUGUAUUGGCUCAGUGCUUUCAGGAGUGAGUGUGUGAGUGAGUGUGUGAGUGUGUGUGGGCGUGAGCGGGUGUGUACGUACCAAUAAACAUCCUGGUUUUAAGACAAUGUUGGAAUUCUCGGGUGCCAA: 1.21
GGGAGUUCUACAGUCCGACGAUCGUUUGACUGUGCUCCCUGGUCCUGUGAGGGCUUCAGUGCCCCACCCCUGGGCCACUUCUGCAGCUCCCACCAGAAUGGAUGACCAGAUUCUGUUGGGUUUGGGCACAUAGUGGAAUUCUCGGGUGCCAA: 0.659
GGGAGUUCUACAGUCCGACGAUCUUCUGUCCCUGAGAACAUGACGUUUGUGACGUCCUACCCAUUGGGAGUCCUUCACACCCCAGCCAUCGCUGCCCACUCCCAGGAGGCCAGGGCAAGCCUGUGUGGACUGGUGGAAUUCUCGGGUGCCAA: 0.304
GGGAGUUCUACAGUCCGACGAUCAGGAUGGCUGUUUUCUAUGCUGUAAGUGGUCCUGUCAAUUCUGUGUUUUAUUGAGAGGGAGACAAAUGGAGCUCCAACUAUUUACUCACUUUUGCAUAUAUUAGGUUUCCUGGAAUUCUCGGGUGCCAA: 0.727

A few entries again (series 1):
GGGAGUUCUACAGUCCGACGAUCGAAACAUUUAAAUUUAAAGAAGCUGUUGUUCUAGGAAGCACGGACUUUCUAGAAGAUGAUAUAGAGAAAAUUGUAGAAGAACUGGGGAAAGAGUAUAAGGGCAACGCCUACCAUCUGAUGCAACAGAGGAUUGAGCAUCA: 1.4 ratio
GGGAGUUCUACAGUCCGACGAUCUGUAACUUAUCUGUAAAAAAGGUUUCUCCCCUACUGUCAAAAAAUAUGCAUGUAUAGUAAUUAGGACUUCAUUCCUCCAUGUUUUCUUCCCUUAUCUUACUGUCAUUGUCCUAAAACCUUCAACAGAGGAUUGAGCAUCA: 1.13 ratio
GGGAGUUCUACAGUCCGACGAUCCUGGCCUGGCCCUCCCCAGGGGCCUCCUUUCGUAUAGUCACUGCUUCUGCAUCAGAUACUUUCAGCUCCAAGUCCUGACUGGGUGGGGCACCUAUCUCAGGCAGAAGGUUUUGGUACCCUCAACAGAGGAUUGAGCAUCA: 0.177 ratio
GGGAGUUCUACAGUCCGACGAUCCCAAUUGUGGAGCAGUACUUGAAGACAAAAAAGAACUCUAAUAAUUUAAUCAUCAAGUACAUUAGCUGCCGCCUGCUGACACUCAUCGUUAUACUGUUAGCGUGUAUCUACCUGGGCUAUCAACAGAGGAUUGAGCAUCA: 0.311 ratio
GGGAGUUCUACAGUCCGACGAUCGUGACUGGUGUUAAGAUUUACCCUCAGCAAAGAAGUGCAGUAGUCACCAUAAUUCCAUCUGUGGUGAGUGCCAGUCAGAUUGUGGAGCUGGUUCCAGACCUCAGUUUAGACAUGGGAACUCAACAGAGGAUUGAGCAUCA: 0.174 ratio
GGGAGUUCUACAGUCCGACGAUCCCACCAGGAUCCCAGAAACAUGACCCUUGCUGCCUACAAAGAGAAGAUGAAGGAGCUCCCGCUGGUGUCCUUGUUCUGCUCCUGCUUCCUGGCCGAUCCCCUGAAUAAGUCGUCCUACAACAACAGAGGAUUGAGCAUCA: 0.224 ratio
